Published values pooled from the literature.
Each numbered part is a random draw from the data of one study; scales do not carry over between parts. Changes are numbered by the printed parent chain.

Block 1
Target: Interferon regulatory factor 7, full length, phosphomimetic (IRF7, Homo sapiens, UniProt Q92985, residues 1-503, S101K/S471D/S472D/S475D/S476D/S477D/S483D/S484D/S487D)
UniProt Q92985, sequence (whole entry, unmodified, looked up): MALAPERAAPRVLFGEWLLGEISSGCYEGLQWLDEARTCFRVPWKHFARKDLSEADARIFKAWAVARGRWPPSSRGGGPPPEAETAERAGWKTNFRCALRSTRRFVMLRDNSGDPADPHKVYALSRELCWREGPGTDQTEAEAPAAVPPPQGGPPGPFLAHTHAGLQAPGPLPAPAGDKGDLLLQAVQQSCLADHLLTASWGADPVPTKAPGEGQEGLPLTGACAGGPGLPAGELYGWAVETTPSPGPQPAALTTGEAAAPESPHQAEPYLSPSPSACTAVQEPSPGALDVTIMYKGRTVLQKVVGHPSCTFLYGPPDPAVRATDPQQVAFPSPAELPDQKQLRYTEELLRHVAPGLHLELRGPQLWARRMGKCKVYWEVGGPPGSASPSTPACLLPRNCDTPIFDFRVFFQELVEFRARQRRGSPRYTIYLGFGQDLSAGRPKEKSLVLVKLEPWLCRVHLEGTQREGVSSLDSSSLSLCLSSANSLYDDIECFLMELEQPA
Technique: protein-binding microarray
Molecule type: double-stranded DNA, one strand shown
Sample: in vitro
Concentration: 250 nM
Setting: 60-bp whole probe
With: salmon DNA 0.4 mg/ml
Relative to: random background probes
Direction: higher = stronger binding
Constant ends, left off below: GCCTAGCAC … GTCTTGATTCGCTTGACGCTGCTG
Strand	log fluorescence [z-score]
TCATATATATTATATATTACTGTGCTA	0.571
GACGGTATCCTACTCCTGACGTGCTAG	-0.0855
GACGAACTGGGGACTGGAAACGTGCTA	-0.489
TCATATTGCTTTCTCTTACTGTGCTAG	1.15
GACGGTTTCGCGACTGGGGACGTGCTA	1.48
TTAGAACTGAGTCTCGATTTGTGCTAG	4.69
TGTGGGCGTAGGCCCGGAGCGTGCTAG	-1.25

Block 2
Target: CCNB1, cyclin fold, Cln2 fusion (human)
Technique: yeast growth competition, sequencing
Sample: yeast
Setting: weak parent motif
Relative to: not given
Direction: higher = stronger binding
Starting sequence: SCAPER docking peptide (human); SNARRSLNFGGST
Variant	normalised enrichment score
G10M	0.528
S12V	0.18
S1I	0.1
A3Q	-1.32

Block 3
Target: Hepatocyte nuclear factor 3-beta, forkhead domain (FOXA2, Homo sapiens, UniProt Q9Y261, residues 142-269)
Technique: protein-binding microarray
Molecule type: double-stranded DNA, one strand shown
Sample: in vitro
Concentration: not given
Setting: k-mer, scored over probes, only values ≥0.25
Direction: higher = stronger binding
Residues (chain): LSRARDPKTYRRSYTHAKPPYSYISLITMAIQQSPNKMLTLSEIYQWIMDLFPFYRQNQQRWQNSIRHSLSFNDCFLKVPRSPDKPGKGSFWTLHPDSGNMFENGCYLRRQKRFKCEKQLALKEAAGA
Strand	E-score
TATATAAA	0.362
GCGTAATA	0.27
CAGTAATG	0.258
ATTTACTC	0.351
ACCTAATA	0.283
AAACAATT	0.295
CTATCTAC	0.256

Single results of other studies
Molecule	target	test	test system	conditions	how to read	measurement	result
PhoQ, residues 284 288 289 292 302 303 NSMLDC	PhoP, residues 12 14 15 18 19 NHTVL (Escherichia coli, UniProt P23836)	Sort-seq, refers to: YFP reporter	E. coli	PhoQ-PhoP variant library, with: 10 µM Mg2+	relative to: high Mg2+ state, higher = stronger signaling	fold induction	14.5
